Measured values pooled from the literature.
Each numbered part is a random draw from the data of one study; scales do not carry over between parts. Substitutions count along the parent as printed.
UniProt P61081, sequence (whole entry, looked up): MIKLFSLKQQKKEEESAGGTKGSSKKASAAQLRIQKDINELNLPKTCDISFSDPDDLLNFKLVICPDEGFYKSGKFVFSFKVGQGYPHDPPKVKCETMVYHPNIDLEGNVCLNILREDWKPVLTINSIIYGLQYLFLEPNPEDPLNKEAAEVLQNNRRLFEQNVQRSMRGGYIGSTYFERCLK
UniProt Q7Z7E8, sequence (whole entry, looked up): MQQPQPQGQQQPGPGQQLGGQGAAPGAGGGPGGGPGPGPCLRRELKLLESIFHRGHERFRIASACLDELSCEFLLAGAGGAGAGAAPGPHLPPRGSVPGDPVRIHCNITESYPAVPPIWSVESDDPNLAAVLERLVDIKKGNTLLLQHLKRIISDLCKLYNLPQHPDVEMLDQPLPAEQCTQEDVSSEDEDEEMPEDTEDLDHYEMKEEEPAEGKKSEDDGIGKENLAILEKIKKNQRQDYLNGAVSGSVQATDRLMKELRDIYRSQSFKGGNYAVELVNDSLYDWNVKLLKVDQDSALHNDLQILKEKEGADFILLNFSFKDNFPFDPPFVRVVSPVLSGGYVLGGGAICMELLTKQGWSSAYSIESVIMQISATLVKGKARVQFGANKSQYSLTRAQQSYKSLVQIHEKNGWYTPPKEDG
UniProt P51668, sequence (whole entry, looked up): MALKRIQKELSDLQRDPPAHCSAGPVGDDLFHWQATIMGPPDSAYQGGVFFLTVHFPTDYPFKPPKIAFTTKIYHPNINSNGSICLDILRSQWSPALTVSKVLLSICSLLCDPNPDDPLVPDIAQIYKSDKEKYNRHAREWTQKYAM
UniProt Q969T4, sequence (whole entry, looked up): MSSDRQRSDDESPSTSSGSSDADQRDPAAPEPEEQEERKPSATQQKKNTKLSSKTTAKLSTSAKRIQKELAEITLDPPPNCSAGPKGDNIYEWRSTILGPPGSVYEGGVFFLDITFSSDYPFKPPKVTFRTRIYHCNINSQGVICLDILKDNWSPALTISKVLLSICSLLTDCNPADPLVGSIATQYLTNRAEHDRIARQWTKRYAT

Block 1
Target: CEBPA, bZIP domain (human)
Technique: DHFR protein complementation
Matrix: yeast
Notes: single substitutions, most at no-binding floor
Relative to: wild-type JUN-FOS pair
Reading: higher = stronger binding
Parent: JUN, bZIP domain (human); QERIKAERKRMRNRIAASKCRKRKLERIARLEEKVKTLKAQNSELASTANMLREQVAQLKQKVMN; partner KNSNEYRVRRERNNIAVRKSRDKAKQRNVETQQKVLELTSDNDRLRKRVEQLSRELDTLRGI
Substitution | binding fitness [natural log]
L59R | -1.53
A57L | -1.49
Q41G | -1.48
E44R | -1.46
A57P | -1.52
K36M | -1.22
A40S | -1.5
R30T | -1.23
L38N | -1.42
I28S | -1.47
Q55L | -1.38
R53G | -1.34
E44G | -1.51

Block 2
Molecule: ASPKIFQKTKCSICNSALELPSVHFLCGHSFHQHCFESYSESDADCPTCLPENRKVMDMI (VPS11 RING domain (UniProt Q9H270))
Technique: yeast two-hybrid
Matrix: yeast
Notes: mostly zero background
Relative to: not given
Reading: higher = stronger interaction
target | lacZ reporter activity
UBE2Q1 UBC core domain (UniProt Q7Z7E8) | 0
UBE2E3 UBC core domain (UniProt Q969T4) | 0
UBE2D1 UBC core domain (UniProt P51668) | 0
UBE2M UBC core domain (UniProt P61081) | 0

Block 3
Target: Interferon regulatory factor 7, full length, phosphomimetic (IRF7, Homo sapiens, UniProt Q92985, residues 1-503, S471D/S472D/S475D/S476D/S477D/S483D/S484D/S487D)
UniProt Q92985, sequence (whole entry, unmodified, looked up): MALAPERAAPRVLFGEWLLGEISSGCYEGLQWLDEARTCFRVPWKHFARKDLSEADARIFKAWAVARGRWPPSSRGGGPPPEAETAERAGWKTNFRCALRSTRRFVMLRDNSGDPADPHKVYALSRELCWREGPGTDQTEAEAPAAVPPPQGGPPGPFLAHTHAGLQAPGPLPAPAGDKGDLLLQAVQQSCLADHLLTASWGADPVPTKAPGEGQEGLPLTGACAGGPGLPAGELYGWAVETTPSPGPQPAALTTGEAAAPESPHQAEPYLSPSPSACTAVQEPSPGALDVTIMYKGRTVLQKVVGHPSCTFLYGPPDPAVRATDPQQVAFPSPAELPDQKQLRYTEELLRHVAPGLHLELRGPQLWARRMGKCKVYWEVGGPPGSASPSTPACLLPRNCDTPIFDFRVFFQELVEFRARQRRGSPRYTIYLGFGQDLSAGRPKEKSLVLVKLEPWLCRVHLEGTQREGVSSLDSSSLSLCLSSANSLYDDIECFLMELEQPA
Technique: protein-binding microarray
Molecule type: double-stranded DNA, one strand shown
Matrix: in vitro
Concentration: 2200 nM top
Notes: 60-bp whole probe
Together with: salmon DNA 0.4 mg/ml
Relative to: random background probes
Reading: higher = stronger binding
All sequences stand within: GCCTAGCAC … GTCTTGATTCGCTTGACGCTGCTG
Strand | fitted relative affinity [z-score]
GACGGTCTGCTTATCCTGACGTGCTAG | 0.662
GACGGTTTCGGGACTGGGGAAGTGCTA | 3.82
TTAGAACTGAGGACTGGATTAGTGCTA | -0.936
GACGGTTTCCTTTCCCTGACGTGCTAG | 4.75
TCAAGTCTGGGAGATGAAACTGTGCTA | -0.56
GCGATCCTCTCACCTCAGCCTGTGCTA | 1.4
GACGATCTCAGACTGGAGAAGTGCTAG | -0.29
GACGGACTGGGTCTCGCGACGTGCTAG | -0.735
TCAATATTCATTTTATTACTGTGCTAG | 1.45
TTAGGTGTCGGGACTGGGTTAGTGCTA | -0.841
TTTGGTTTCGGGTATCGGTTAGTGCTA | 7.65
TACTGGACTGGGGTTTCCCGGTGCTAG | -0.722

Block 4
Target: CCNF, cyclin fold, Cln2 fusion (human)
Technique: yeast growth competition, sequencing
Matrix: yeast
Notes: weak parent motif
Relative to: not given
Reading: higher = stronger binding
Parent: MASTL docking peptide (human); PMIAKNLMCELDE
Substitution | normalised enrichment score
A4M | -0.206
A4T | -0.0888
D12Q | 0.289
A4N | 0.177
I3E | -0.484
D12K | 0.166
A4G | -0.195
D12I | -0.497
L7A | -0.207

For quick reference, copied from above (block 1):
Substitution | binding fitness [natural log]
K36M | -1.22
Q55L | -1.38
